# Measured values of several laboratories.
# Every numbered part comes from another study and shows a few of its results, in no order. Substitutions count along the parent as printed.

# Set 1
# Target: Interferon regulatory factor 5, full length, phosphomimetic (IRF5, Homo sapiens, UniProt Q13568-2, residues 1-514, K96S/S451D/S453D/S456D/S462D)
# Technique: protein-binding microarray
# Form: double-stranded DNA, one strand shown
# Sample: in vitro
# Tested at: 250 nM
# Notes: 60-bp whole probe
# Added: salmon DNA 0.4 mg/ml
# Relative to: random background probes
# Reading: higher = stronger binding
# Constant ends, left off below: GCCTAGCAC … GTCTTGATTCGCTTGACGCTGCTG
Oligonucleotide,log fluorescence
GACGGTATCCTTAACCTGACGTGCTAG,-0.204 z-score
TTTCGTATCTTCATTGTCATGTGCTAG,10.1 z-score
AGGACCATCCCTTATAAATAGGTGCTA,-0.332 z-score
TTAGATATCGGGTATCGATTCGTGCTA,4.86 z-score
GCCGGACTGGACACTGGGGACGTGCTA,-0.816 z-score
TTAGAGTCCAGTTTCGATTAGTGCTAG,9.41 z-score
TCATGTGTCTTAAATAGGACTGTGCTA,0.0959 z-score
GTCGGACTGCTTCTCCTGACGTGCTAG,-0.238 z-score
TCACATTTAATTATATGACTGTGCTAG,0.692 z-score
GACGGGATCGGGTATCGGGACGTGCTA,0.444 z-score
CTTGAACCTGGGAGGTGGAGGTGCTAG,-0.552 z-score
GACGATAGCAGTCTCGAGACGTGCTAG,0.618 z-score
GACGATGTCAGTTTCGAGACGTGCTAG,4.78 z-score
GCCCATCTCTGCTCCTTCTGGTGCTAG,-0.329 z-score
GAGTTTCCATTTTCTGAATGCGTGCTA,2.68 z-score
GACGAACTGGGGTATCGATACGTGCTA,2.87 z-score
GACGCTTTCGACTATCGGGACGTGCTA,7.51 z-score
GAAGGTTTCGACTATCGGGACGTGCTA,6.96 z-score
TTAGAGTTCAGACTGGATTAGTGCTAG,-0.279 z-score
TTGCATCGTAAGCAAAAATGGTGCTAG,1.07 z-score
TTAGATGTCGGGTATCGATTAGTGCTA,2.98 z-score
TTCAATTCCTGAAATCTCTTTGTGCTA,0.872 z-score
TCATGCATCTATCTTAAACTGTGCTAG,0.457 z-score
TTTTTTTTTACTTCGGGTGAGTGCTAG,1.41 z-score
TCTGTTTCTGATATGGTATGGTGCTAG,2.33 z-score

# Set 2
# Target: ABI1, truncated, D143A, DHFR fusion (Arabidopsis thaliana)
# Technique: DHFR PCA, deep sequencing
# Sample: yeast
# Notes: methotrexate growth selection, single substitutions
# Added: (+)-ABA 200 µM
# Relative to: wild-type fitted maximum
# Reading: higher = stronger binding
# Parent: PYL1, truncated, DHFR fusion (Arabidopsis thaliana); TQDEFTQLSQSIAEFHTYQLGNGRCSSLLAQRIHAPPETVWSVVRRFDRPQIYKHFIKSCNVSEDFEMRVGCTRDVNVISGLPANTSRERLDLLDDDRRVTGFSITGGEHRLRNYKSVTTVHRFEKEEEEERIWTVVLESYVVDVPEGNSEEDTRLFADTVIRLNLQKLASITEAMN
Substitution,relative binding score
A13I,92%
P36M,87.2%
R123K,112%
R98T,84.1%
D95G,9.39%
S63A,107%
V44W,-8.26%
E4Y,94.7%
M68I,104%
D48C,52.3%
R46P,48.8%

# Set 3
# Target: Histone acetyltransferase KAT6A, winged helix 2, GST fusion (KAT6A, Homo sapiens, UniProt Q92794, residues 85-181)
# Technique: protein binding microarray
# Form: double-stranded DNA, one strand shown
# Sample: in vitro
# Tested at: not given
# Notes: 8-mer, flanks averaged, mean of 2 arrays, mostly near background
# Relative to: not given
# Reading: higher = stronger binding
# Residues (chain): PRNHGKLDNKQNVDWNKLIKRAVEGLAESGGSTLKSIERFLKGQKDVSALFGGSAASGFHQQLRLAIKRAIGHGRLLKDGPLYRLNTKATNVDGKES
Oligonucleotide,E-score
GCTCTCGA,0.0457
AGCACTGA,0.00246
CGCGACCA,0.148
GGCGGCGA,0.178
TCAACACA,0.143
GCTGAAAC,0.163
ACGGGGAG,-0.0236
GCGAACTA,0.0104
CGCTACAG,-0.102
AAAGGACT,-0.105
ACTAGAAG,-0.0237
ACGGCAAA,0.0399
CCCTACTC,0.0251
GAATGATC,-0.0259
GGCATTAC,0.00302
CTGTCGCA,0.119
ACACGGGT,-0.156
CCATGCAA,0.09
TATTTCGA,0.097
CGGCGCTA,0.0521
GTCTAATA,-0.187
AGCCCTGA,0.0449
ATGACTTA,-0.0774
ACGTAGTG,-0.0487

# Set 4
# Target: CCNB2, cyclin fold, Cln2 fusion (human)
# Technique: yeast growth competition, sequencing
# Sample: yeast
# Notes: weak parent motif
# Relative to: not given
# Reading: higher = stronger binding
# Parent: CDC6 docking peptide (human); TLKGRRLVFDNQL; partner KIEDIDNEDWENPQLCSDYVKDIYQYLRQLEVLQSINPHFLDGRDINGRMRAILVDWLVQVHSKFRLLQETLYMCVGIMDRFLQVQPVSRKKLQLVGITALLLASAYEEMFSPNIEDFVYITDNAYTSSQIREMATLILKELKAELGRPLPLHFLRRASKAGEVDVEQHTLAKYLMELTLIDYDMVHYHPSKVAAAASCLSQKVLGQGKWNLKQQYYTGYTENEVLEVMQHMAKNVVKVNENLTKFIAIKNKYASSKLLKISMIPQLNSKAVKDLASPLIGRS
Substitution,normalised enrichment score
N11Q,0.0534
G4F,0.026
R6Q,-0.334
T1W,0.552
R6H,0.0773
L2D,-0.53
L13H,-0.0703
R5V,0.0262
R5F,0.202
R6D,-0.563
R6Y,0.235
R5E,-0.657
V8E,0.631
L7G,0.416
F9H,0.372
V8H,0.0692
R5A L7A,0.096
D10S,0.449
T1G,0.625
R5K F9L,0.496
V8A,0.103
R5C,-0.514
Q12W,0.719
L2E,-0.175
T1M,0.123

# Set 5
# Target: CEP164, C-terminal peptide (human)
# Technique: DHFR complementation, deep sequencing
# Sample: yeast
# Notes: single substitutions, model-inferred values
# Relative to: wild type
# Reading: higher = weaker binding
# Parent: PDZK1, PDZ domain 2 (human); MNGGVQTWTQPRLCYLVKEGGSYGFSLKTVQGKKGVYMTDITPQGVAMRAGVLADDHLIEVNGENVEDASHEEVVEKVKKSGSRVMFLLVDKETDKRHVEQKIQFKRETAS; partner HNRVKVYRF
Substitution,binding free energy change [kcal/mol]
Y37A,0.91
K96P,0.0375
I59N,0.971
R97H,-0.0867
L88A,-0.117
T109F,-0.146
A50Y,0.563
V78Q,1.65
S81E,1.23
K102E,-0.0692
L53I,0.311
S70Q,-0.0466
K34T,0.209
F87S,1.66
K106H,-0.0922
E108G,-0.157
T42A,0.261
V30N,0.468
K80M,0.0331
V90S,-0.222
K79M,0.0214
K102D,-0.0476
V90C,-0.109

# Set 6
# Target: Sal-like protein 4, full length isoform A (SALL4, Homo sapiens, UniProt Q9UJQ4, residues 1-1053)
# Chain of UniProt Q9UJQ4 (whole entry, looked up): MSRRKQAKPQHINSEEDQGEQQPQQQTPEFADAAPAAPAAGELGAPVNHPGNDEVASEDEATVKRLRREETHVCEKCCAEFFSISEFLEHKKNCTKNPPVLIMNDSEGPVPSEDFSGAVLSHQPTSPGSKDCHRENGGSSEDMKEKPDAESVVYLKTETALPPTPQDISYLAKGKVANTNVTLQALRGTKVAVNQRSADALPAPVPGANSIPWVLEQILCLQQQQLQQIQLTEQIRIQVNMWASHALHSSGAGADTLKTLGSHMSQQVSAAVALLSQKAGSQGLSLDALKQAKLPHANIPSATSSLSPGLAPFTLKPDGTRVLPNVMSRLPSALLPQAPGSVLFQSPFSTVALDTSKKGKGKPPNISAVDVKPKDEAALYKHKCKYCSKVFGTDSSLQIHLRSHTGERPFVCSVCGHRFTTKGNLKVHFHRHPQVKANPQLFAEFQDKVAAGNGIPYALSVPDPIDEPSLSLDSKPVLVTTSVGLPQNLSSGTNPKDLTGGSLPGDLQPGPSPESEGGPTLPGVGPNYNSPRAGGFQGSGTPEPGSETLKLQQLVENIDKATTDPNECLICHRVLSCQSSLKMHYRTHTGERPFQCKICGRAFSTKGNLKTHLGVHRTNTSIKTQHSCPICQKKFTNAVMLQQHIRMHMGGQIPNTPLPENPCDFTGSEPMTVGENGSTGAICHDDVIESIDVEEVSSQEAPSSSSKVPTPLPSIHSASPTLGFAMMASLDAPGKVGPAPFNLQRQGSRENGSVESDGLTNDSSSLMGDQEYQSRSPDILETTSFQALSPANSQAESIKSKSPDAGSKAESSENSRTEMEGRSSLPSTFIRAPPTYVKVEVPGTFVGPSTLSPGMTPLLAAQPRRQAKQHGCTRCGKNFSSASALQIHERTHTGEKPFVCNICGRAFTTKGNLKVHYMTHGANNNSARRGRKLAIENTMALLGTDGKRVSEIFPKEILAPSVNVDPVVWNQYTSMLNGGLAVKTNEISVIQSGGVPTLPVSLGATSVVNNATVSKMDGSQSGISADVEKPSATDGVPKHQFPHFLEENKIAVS
# Technique: universal PBM
# Form: double-stranded DNA, one strand shown
# Sample: in vitro
# Tested at: 600 nM
# Notes: 8-mer, flanks averaged, mean of replicates
# Reading: higher = stronger binding
Oligonucleotide,E-score
ATCCCGCA,-0.0633
AAAGGGGG,-0.116
ATTTCGCC,0.0305
GGTCGCGA,-0.211
ACGGCAAG,-0.1
AGATAGTA,0.191
TCAATAAA,0.411
CTCAGTCC,-0.168
CCAACTAC,-0.0184
ATTAGGCA,0.11
GAATTTAC,0.244
AAAACGTC,0.169
CGACCTCC,-0.245
ACCGTCTA,-0.103
GGGCATCA,-0.235
CCTGGACC,-0.229
GGCGCAGA,-0.227
CAGATTTC,0.0417
CGCTATCC,-0.106
ACGATCTC,-0.0924
GTATCGGA,0.102
GCATGGAA,0.000265
GCGCATAC,-0.0557
GCCTGTCA,-0.201
ACATACGC,0.097

# Single results of other studies
Molecule,target,test,test system,conditions,how to read,measurement,value
"PhoQ, residues 284 288 289 292 302 303 SLSVQF","PhoP, residues 12 14 15 18 19 VQALL (Escherichia coli, UniProt P23836)","Sort-seq, refers to: YFP reporter",E. coli,"PhoQ-PhoP variant library, added: 10 µM Mg2+","relative to: high Mg2+ state, higher = stronger signaling",fold induction,13.6

# For quick reference, copied from above (set 2):
Substitution,relative binding score
A13I,92%
P36M,87.2%
R123K,112%
R98T,84.1%
D95G,9.39%
S63A,107%
V44W,-8.26%
E4Y,94.7%
M68I,104%
D48C,52.3%
R46P,48.8%
